Results gathered from unrelated publications.
Each line is one published result; not all experiments were run side by side. ± marks the error that the study gave.
rep main protease: Replicase polyprotein 1ab, main protease (rep, Severe acute respiratory syndrome-related coronavirus, UniProt P0C6X7)
rep papain-like protease: Replicase polyprotein 1ab, papain-like protease (rep, Severe acute respiratory syndrome-related coronavirus, UniProt P0C6X7)

Compound	tested on	test	test system	conditions	quantity	result
Oc1cc(O)cc(Oc2c(O)cc(O)cc2Oc2c(O)cc(O)cc2O)c1	rep main protease	enzyme activity, inhibitor	–	–	Ki	8.2 µM
CC(=O)N[C@@H](CCC(=O)O)C(=O)N[C@@H](CO)C(=O)N[C@H](C(=O)N[C@@H](CC(C)C)C(=O)N[C@H](C=O)CCC(N)=O)[C@@H](C)O	rep main protease	enzyme activity, inhibitor	–	pH 7.3	Ki	8.27 µM
CCCCCCCCCCCCCCCC(=O)N[C@@H](CCC(=O)NCCOCCOCCC(=O)NCCOCCOCCC(=O)NCCCC[C@H](NC(=O)[C@H](CC(=O)O)NC(=O)[C@H](CC(C)C)NC(=O)[C@H](Cc1ccc(O)cc1)NC(=O)[C@H](CCCCN)NC(=O)[C@H](CO)NC(=O)[C@H](Cc1ccc(O)cc1)NC(=O)[C@H](CC(=O)O)NC(=O)[C@H](CO)NC(=O)[C@@H](NC(=O)[C@H](Cc1ccccc1)NC(=O)[C@@H](NC(=O)CNC(=O)[C@H](CCC(N)=O)NC(=O)[C@@H](CO)NC(=O)[C@@H](N)Cc1c[nH]cn1)[C@@H](C)O)[C@@H](C)O)C(=O)N[C@@H](CCCNC(=N)N)C(=O)N[C@@H](CCCNC(=N)N)C(=O)N[C@@H](C)C(=O)N[C@@H](CCC(N)=O)C(=O)N[C@@H](CC(=O)O)C(=O)N[C@@H](Cc1ccccc1)C(=O)N[C@H](C(=O)N[C@@H](CCC(N)=O)C(=O)N[C@@H](Cc1c[nH]c2ccccc12)C(=O)N[C@@H](CC(C)C)C(=O)N[C@@H](CC(C)C)C(=O)N[C@@H](CC(N)=O)C(=O)N[C@H](C(=O)NCC(=O)NCC(=O)N1CCC[C@H]1C(=O)N[C@@H](CO)C(=O)N[C@@H](CO)C(=O)NCC(=O)N[C@@H](C)C(=O)N1CCC[C@H]1C(=O)N1CCC[C@H]1C(=O)N1CCC[C@H]1C(=O)N[C@@H](CO)C(N)=O)[C@@H](C)O)C(C)C)C(=O)O	–	–	rhesus monkey, male, plasma	subcutaneous, 60 µg/kg, day 28, toxicokinetics, mean	Cmax	97.9 ng/mL
COC(=O)c1ccccc1NC(=O)Cn1cc(C(=O)C(F)(F)F)c2ccccc21	rep main protease	inhibitor	–	–	Ki	27 ± 2 µM
CSCC[C@@H](C=O)NC(=O)[C@H](CC(C)C)NC(=O)[C@H](CC(C)C)NC(C)=O	rep main protease	enzyme activity, inhibitor	–	–	Ki	0.6 µM
O=C(NC(NC(=O)OCc1ccccc1)c1ccc(C(F)(F)F)cc1)OCc1ccccc1	rep main protease	enzyme activity, inhibitor	–	–	Ki	366 µM
CCC[C@H](NC(=O)[C@H](CC(C)C)NC(=O)OCc1ccccc1)C(=O)C(=O)NCc1ccccn1	rep main protease	enzyme activity, inhibitor	–	–	Ki	0.14 µM
O=C[C@H](C[C@@H]1CCNC1=O)NC(=O)[C@H](CC1CCCCC1)NC(=O)c1cc2ccccc2[nH]1	rep main protease	viral replication	–	–	EC50	5.38 µM
O=[N+]([O-])c1ccc(O)c(O)c1	rep papain-like protease	binding	–	–	Kd	461 µM
COC(=O)C[C@H](NC(=O)C(NC(=O)OCc1ccccc1)C(C)C)C(=O)CF (stereo partly drawn)	rep main protease	inhibitor	–	–	Ki	0.512 ± 0.025 µM
CC(C)C[C@H](NC(=O)OCc1ccccc1)C(=O)N[C@H](C=O)C[C@@H]1CCNC1=O	rep main protease	viral replication	–	–	EC50	3.63 µM
O=c1cc(C(F)(F)F)c2ccc(O)cc2o1	rep papain-like protease	binding	–	–	Kd	202 µM

Repeated from above:
Compound	tested on	test	test system	conditions	quantity	result
CCCCCCCCCCCCCCCC(=O)N[C@@H](CCC(=O)NCCOCCOCCC(=O)NCCOCCOCCC(=O)NCCCC[C@H](NC(=O)[C@H](CC(=O)O)NC(=O)[C@H](CC(C)C)NC(=O)[C@H](Cc1ccc(O)cc1)NC(=O)[C@H](CCCCN)NC(=O)[C@H](CO)NC(=O)[C@H](Cc1ccc(O)cc1)NC(=O)[C@H](CC(=O)O)NC(=O)[C@H](CO)NC(=O)[C@@H](NC(=O)[C@H](Cc1ccccc1)NC(=O)[C@@H](NC(=O)CNC(=O)[C@H](CCC(N)=O)NC(=O)[C@@H](CO)NC(=O)[C@@H](N)Cc1c[nH]cn1)[C@@H](C)O)[C@@H](C)O)C(=O)N[C@@H](CCCNC(=N)N)C(=O)N[C@@H](CCCNC(=N)N)C(=O)N[C@@H](C)C(=O)N[C@@H](CCC(N)=O)C(=O)N[C@@H](CC(=O)O)C(=O)N[C@@H](Cc1ccccc1)C(=O)N[C@H](C(=O)N[C@@H](CCC(N)=O)C(=O)N[C@@H](Cc1c[nH]c2ccccc12)C(=O)N[C@@H](CC(C)C)C(=O)N[C@@H](CC(C)C)C(=O)N[C@@H](CC(N)=O)C(=O)N[C@H](C(=O)NCC(=O)NCC(=O)N1CCC[C@H]1C(=O)N[C@@H](CO)C(=O)N[C@@H](CO)C(=O)NCC(=O)N[C@@H](C)C(=O)N1CCC[C@H]1C(=O)N1CCC[C@H]1C(=O)N1CCC[C@H]1C(=O)N[C@@H](CO)C(N)=O)[C@@H](C)O)C(C)C)C(=O)O	–	–	rhesus monkey, male, plasma	subcutaneous, 60 µg/kg, day 28, toxicokinetics, mean	Cmax	97.9 ng/mL
